{"data": "Experimental data pooled from the literature", "note": "Each numbered part is a random draw from the data of one study; scales do not carry over between parts. pEC50: −log10 of the molar value.", "sequence of UniProt Q9H4B4 (whole entry, looked up)": "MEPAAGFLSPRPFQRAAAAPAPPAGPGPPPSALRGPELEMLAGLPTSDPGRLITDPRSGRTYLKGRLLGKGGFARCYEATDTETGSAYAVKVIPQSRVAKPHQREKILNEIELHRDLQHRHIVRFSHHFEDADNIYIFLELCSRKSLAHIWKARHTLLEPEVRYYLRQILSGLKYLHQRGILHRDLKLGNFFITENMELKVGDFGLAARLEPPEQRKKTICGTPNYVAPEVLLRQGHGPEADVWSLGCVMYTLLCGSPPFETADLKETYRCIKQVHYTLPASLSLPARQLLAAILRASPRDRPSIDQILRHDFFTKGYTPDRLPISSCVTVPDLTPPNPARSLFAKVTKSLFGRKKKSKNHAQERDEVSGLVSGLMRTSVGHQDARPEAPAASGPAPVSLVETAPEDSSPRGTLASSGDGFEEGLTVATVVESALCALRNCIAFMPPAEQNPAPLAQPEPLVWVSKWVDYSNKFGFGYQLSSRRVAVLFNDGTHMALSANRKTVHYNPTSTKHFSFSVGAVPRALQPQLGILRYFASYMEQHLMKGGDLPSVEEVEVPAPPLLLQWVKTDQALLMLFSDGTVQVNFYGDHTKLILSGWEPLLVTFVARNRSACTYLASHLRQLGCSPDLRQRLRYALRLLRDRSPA", "sequence of UniProt Q5S007 (whole entry, looked up)": "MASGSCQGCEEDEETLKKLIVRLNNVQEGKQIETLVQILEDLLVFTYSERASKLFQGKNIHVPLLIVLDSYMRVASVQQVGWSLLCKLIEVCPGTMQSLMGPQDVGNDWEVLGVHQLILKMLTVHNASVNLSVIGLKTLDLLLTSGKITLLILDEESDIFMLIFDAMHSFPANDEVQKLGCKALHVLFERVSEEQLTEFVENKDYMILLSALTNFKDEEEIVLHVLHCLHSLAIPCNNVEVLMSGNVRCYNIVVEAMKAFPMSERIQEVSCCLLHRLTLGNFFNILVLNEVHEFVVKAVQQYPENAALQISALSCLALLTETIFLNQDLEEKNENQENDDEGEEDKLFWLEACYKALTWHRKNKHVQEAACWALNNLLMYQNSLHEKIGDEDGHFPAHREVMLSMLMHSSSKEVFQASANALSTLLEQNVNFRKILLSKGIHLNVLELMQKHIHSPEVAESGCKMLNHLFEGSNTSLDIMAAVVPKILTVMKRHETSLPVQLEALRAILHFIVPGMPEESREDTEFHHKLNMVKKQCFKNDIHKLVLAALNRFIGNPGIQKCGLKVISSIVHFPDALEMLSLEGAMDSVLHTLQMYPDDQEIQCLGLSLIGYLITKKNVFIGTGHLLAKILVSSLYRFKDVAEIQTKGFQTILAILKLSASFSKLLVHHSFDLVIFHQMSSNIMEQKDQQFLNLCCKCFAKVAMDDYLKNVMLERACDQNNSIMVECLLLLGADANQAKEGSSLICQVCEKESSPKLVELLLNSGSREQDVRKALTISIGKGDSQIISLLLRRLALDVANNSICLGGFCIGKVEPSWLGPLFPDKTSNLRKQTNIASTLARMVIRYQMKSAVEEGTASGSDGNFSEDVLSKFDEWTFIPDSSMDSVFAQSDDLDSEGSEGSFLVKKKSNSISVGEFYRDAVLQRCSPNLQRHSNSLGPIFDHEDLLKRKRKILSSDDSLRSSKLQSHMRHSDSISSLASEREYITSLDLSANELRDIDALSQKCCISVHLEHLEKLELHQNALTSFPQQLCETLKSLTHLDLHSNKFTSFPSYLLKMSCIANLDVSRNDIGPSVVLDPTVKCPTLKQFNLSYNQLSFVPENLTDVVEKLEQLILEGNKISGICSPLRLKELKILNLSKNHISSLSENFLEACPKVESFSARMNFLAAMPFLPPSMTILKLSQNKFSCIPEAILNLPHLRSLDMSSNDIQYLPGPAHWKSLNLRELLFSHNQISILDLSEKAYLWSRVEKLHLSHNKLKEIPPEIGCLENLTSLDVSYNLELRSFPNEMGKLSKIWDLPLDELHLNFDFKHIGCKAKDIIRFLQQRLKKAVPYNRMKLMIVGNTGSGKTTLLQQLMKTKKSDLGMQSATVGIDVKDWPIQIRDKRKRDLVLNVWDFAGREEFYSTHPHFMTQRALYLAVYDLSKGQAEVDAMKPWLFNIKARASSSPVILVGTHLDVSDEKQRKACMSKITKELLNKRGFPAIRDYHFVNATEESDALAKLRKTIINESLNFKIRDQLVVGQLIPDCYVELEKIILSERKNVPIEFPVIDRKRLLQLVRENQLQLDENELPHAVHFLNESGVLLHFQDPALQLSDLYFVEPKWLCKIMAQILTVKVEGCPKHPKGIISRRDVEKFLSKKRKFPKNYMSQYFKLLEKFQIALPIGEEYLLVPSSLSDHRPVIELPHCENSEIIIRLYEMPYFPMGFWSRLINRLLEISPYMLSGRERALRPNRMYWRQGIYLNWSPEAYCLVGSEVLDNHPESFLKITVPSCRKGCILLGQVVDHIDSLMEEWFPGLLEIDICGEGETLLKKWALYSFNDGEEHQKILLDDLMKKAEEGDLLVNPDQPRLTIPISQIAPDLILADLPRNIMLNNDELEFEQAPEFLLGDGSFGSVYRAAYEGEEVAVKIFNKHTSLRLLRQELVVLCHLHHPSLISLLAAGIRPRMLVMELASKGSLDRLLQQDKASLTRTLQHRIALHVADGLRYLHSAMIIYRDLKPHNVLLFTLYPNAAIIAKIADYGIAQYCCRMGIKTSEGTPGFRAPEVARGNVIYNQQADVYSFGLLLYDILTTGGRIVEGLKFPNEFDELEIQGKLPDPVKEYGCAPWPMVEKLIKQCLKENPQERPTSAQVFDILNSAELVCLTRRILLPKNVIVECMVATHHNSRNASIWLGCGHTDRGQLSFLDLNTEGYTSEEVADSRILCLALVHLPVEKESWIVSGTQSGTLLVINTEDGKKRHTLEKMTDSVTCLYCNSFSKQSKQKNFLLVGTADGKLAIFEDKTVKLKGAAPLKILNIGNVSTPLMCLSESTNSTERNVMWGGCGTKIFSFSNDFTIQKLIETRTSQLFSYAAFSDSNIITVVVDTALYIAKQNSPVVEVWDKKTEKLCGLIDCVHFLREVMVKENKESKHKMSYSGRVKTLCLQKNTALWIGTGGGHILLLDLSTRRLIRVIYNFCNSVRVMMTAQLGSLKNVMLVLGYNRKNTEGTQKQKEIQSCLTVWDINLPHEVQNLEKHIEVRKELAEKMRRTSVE", "sequence of UniProt Q8TD08 (whole entry, looked up)": "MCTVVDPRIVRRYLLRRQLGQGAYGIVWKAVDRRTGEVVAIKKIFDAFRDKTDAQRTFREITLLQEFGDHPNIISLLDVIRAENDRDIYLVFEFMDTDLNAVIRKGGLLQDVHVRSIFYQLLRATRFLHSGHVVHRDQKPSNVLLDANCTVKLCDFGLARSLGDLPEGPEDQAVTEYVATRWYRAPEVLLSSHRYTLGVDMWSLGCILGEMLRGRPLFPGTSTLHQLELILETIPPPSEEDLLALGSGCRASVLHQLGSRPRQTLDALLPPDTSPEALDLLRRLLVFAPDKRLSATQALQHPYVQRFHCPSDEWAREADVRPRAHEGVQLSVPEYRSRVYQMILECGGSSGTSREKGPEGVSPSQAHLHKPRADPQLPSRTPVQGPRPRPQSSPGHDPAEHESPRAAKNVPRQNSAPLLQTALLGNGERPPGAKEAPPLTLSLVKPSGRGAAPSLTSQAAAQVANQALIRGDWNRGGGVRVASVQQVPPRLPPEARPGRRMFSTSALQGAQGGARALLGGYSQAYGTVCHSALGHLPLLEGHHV"}
{"data": "Sample 1", "target": "5-hydroxytryptamine receptor 1D (HTR1D, Homo sapiens, UniProt P28221)", "effect on": "ligand displacement", "method": "radioligand", "concentration": "10 µM", "sequence of UniProt P28221 (whole entry, looked up)": "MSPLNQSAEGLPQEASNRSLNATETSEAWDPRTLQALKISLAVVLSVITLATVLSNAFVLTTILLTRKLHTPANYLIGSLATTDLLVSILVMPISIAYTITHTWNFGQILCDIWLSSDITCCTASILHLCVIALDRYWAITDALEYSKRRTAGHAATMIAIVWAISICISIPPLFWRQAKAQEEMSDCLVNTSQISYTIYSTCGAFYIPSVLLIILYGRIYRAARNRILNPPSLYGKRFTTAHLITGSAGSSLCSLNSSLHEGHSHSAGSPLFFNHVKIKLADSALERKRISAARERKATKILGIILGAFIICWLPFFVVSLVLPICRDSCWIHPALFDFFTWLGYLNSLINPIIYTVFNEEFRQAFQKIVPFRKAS"}
{"Structure (SMILES)": "CN(C)CC#Cc1ccc(OCCCc2sc(N3CCc4cccc(C(=O)Nc5nc6ccccc6s5)c4C3)nc2C(=O)O)c(F)c1", "inhibition": "34.5%"}
{"Structure (SMILES)": "CC1=C(C#N)[C@@H](c2ccc3[nH]nc(C)c3c2)C(C#N)=C(c2ccc(Cl)cc2)N1", "inhibition": "4.2%"}
{"Structure (SMILES)": "Cn1nc(C(=O)NCc2ccc(C(=O)O)cc2)cc1-c1ccc2[nH]ccc2c1", "inhibition": "10.1%"}
{"Structure (SMILES)": "N#Cc1ccc(Nc2ccc3[nH]c(=O)[nH]c3c2)c(Cl)c1", "inhibition": "3.68%"}
{"Structure (SMILES)": "CCOCCn1cc(C(=O)Nc2ccc(-n3nc(-c4cccnc4)cc3C(F)(F)F)cn2)ccc1=O", "inhibition": "0.593%"}
{"Structure (SMILES)": "FC(F)(F)c1ccc2c(c1)nc(-c1cccnc1)n2C1CC1", "inhibition": "6.79%"}
{"Structure (SMILES)": "CNC(=O)Nc1ccc2c(c1)C1(CC2)OC(=O)N(CC(=O)N(Cc2ccc(F)cc2)[C@@H](C)C(F)(F)F)C1=O (single isomer, unassigned)", "inhibition": "2.22%"}
{"Structure (SMILES)": "CCc1ccccc1C(=O)Nc1n[nH]c2c(C)c(F)c(C3C(C#N)=C(C)N(C)C(C)=C3C#N)cc12", "inhibition": "4.65%"}
{"Structure (SMILES)": "CCOC(=O)c1cc2cc(-c3cc(C(=O)NCc4ccc(C(=O)O)cc4)nn3C)ccc2[nH]1", "inhibition": "3.64%"}
{"Structure (SMILES)": "CNCc1ccccc1-c1csc([C@@H](C)Nc2nc(C)nc3cc(OC)c(OC)cc23)c1", "inhibition": "98.1%"}
{"Structure (SMILES)": "O=C([C@H]1C[C@H](O)CN1c1ccc(Cl)cc1)N1CC2COCC(C1)N2Cc1ccc(Cl)cc1", "inhibition": "-7.5%"}
{"Structure (SMILES)": "Cc1nc(Cc2cccc(C(F)(F)F)c2)sc1-c1ccc(C(N)=O)nc1", "inhibition": "8.49%"}
{"Structure (SMILES)": "O=C(Nc1cccnn1)N1CCC(=Cc2cccc(Oc3ccc(C(F)(F)F)cn3)c2)CC1", "inhibition": "42.1%"}
{"Structure (SMILES)": "O=C(O)[C@@H]1[C@@H](Cn2nnc3ccccc3c2=O)CC[C@H]1C(=O)c1ccc(OCCC2CCOCC2)cc1", "inhibition": "14%"}
{"Structure (SMILES)": "CCCCN(CCCC)C(=O)CN1C[C@@H](c2cc(OC)c3c(c2)OCO3)[C@H](C(=O)O)[C@H]1CC(C)(C)CCC", "inhibition": "-3.72%"}
{"Structure (SMILES)": "Cn1cc(Cl)c2c(Oc3c(F)cc(Nc4cc(Cl)nc(N)n4)cc3F)ccnc21", "inhibition": "-5.84%"}
{"Structure (SMILES)": "O=C(NCc1ncc(C(F)(F)F)cc1Cl)c1ccc2c(c1)C1(CCS(=O)(=O)CC1)[C@H](C1CC1)N2S(=O)(=O)c1ccc(F)cc1", "inhibition": "-13.3%"}
{"Structure (SMILES)": "O=S(=O)(NC1CCC(c2cc(F)ccc2F)(S(=O)(=O)c2ccc(Cl)cc2)CC1)C(F)(F)F (stereo not drawn)", "inhibition": "13.9%"}
{"Structure (SMILES)": "COc1cccc(CNC(=O)c2nc3scc(COCc4ccc(C(=O)O)cc4)c3c(=O)[nH]2)c1", "inhibition": "-1.39%"}
{"Structure (SMILES)": "CC(=O)N1CCC(c2ccc(C(=O)NC(=N)N)cc2C(F)(F)F)CC1", "inhibition": "34%"}
{"data": "Sample 2", "Compound": "Cc1ccc(NC(=O)c2ccnc(C(F)(F)F)c2)cc1-c1cc(OCCO)nc(N2CCOCC2)c1", "concentration": "1 µM"}
{"target": "JAK1 (Homo sapiens, UniProt P23458)", "method": "competitive binding panel", "reference": "vehicle", "remaining binding": "82%"}
{"target": "PLK3 (Homo sapiens, UniProt Q9H4B4)", "method": "competitive binding panel", "reference": "vehicle", "remaining binding": "94%"}
{"target": "PKN1 (Homo sapiens, UniProt Q16512)", "method": "competitive binding panel", "reference": "vehicle", "remaining binding": "100%"}
{"target": "LRRK2 (Homo sapiens, UniProt Q5S007)", "method": "competitive binding panel", "reference": "vehicle", "remaining binding": "100%"}
{"target": "STK10 (Homo sapiens, UniProt O94804)", "method": "competitive binding", "setting": "LOK", "remaining binding": "21%"}
{"target": "HIPK3 (Homo sapiens, UniProt Q9H422)", "method": "competitive binding panel", "reference": "vehicle", "remaining binding": "98%"}
{"target": "MAST1 (Homo sapiens, UniProt Q9Y2H9)", "method": "competitive binding panel", "reference": "vehicle", "remaining binding": "79%"}
{"target": "NTRK1 (Homo sapiens, UniProt P04629)", "method": "competitive binding", "setting": "TRKA", "remaining binding": "94%"}
{"target": "WNK1 (Homo sapiens, UniProt Q9H4A3)", "method": "competitive binding panel", "reference": "vehicle", "remaining binding": "84%"}
{"target": "TESK1 (Homo sapiens, UniProt Q15569)", "method": "competitive binding panel", "reference": "vehicle", "remaining binding": "100%"}
{"target": "MATK (Homo sapiens, UniProt P42679)", "method": "competitive binding", "setting": "CTK", "remaining binding": "90%"}
{"target": "MAPK15 (Homo sapiens, UniProt Q8TD08)", "method": "competitive binding panel", "item": "ERK8", "reference": "vehicle", "remaining binding": "86%"}
{"target": "CDC42BPG (Homo sapiens, UniProt Q6DT37)", "method": "competitive binding panel", "item": "DMPK2", "reference": "vehicle", "remaining binding": "81%"}
{"data": "Sample 3", "target": "Beta-1 adrenergic receptor (ADRB1, Homo sapiens, UniProt P08588)", "action": "agonist", "sequence of UniProt P08588 (whole entry, looked up)": "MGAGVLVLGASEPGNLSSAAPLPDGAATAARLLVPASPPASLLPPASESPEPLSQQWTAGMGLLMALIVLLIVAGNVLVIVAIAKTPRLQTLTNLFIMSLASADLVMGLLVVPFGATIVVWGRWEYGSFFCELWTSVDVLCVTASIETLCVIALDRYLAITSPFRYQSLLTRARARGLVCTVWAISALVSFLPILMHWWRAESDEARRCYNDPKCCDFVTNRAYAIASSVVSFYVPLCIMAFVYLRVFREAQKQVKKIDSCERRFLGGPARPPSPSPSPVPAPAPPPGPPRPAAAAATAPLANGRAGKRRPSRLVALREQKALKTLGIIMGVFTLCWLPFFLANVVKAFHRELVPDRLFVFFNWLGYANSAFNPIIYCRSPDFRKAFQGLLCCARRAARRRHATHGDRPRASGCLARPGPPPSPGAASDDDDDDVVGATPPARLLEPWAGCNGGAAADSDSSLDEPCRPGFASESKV"}
{"Structure (SMILES)": "COc1ccccc1N1CCN(CC[C@H]2CN(C(=O)N3CCOCC3)CC[C@H]2CC(=O)O)CC1", "pEC50": "≤ 4.00"}
{"Structure (SMILES)": "COc1ccccc1N1CCN(c2ncncc2-c2nc(-c3ccccc3)no2)CC1", "pEC50": "≤ 4.00"}
{"Structure (SMILES)": "CN(C)c1cccc(-c2cc(N3CCOCC3=O)c3cncn3c2)c1", "pEC50": "≤ 4.00"}
{"Structure (SMILES)": "CC[C@H](NC(C)C)[C@H](O)c1ccc(O)c2[nH]c(=O)ccc12 (racemic)", "pEC50": 7.63}
{"Structure (SMILES)": "COc1ccc(OC)c(-c2ncc3c(n2)OCCN(c2cccc(C(F)(F)F)c2)C3=O)c1", "pEC50": 5.00}
{"Structure (SMILES)": "O=C1c2cnc(-c3ccsc3)nc2OCCN1c1cccc(C(F)(F)F)c1", "pEC50": "≤ 4.00"}
{"Structure (SMILES)": "CC(C)c1ccc(Nc2n[nH]c(C(O)C3CC3)n2)cc1 (stereo not drawn)", "pEC50": "≤ 4.00"}
{"Structure (SMILES)": "CNc1nc(-c2ccccc2)c(-c2ccccc2)s1", "pEC50": "≤ 4.00"}
{"Structure (SMILES)": "OC(COc1cccc(CN2CCC(c3ncon3)CC2)c1)CN1CCOCC1 (stereo not drawn)", "pEC50": "≤ 4.00"}
{"Structure (SMILES)": "COc1ccccc1N1CCN(c2ncnc3c2CN(C)CC3)CC1", "pEC50": "≤ 4.00"}
{"Structure (SMILES)": "c1cc(-c2cc(-c3ccncc3)c3cncn3c2)cc(N2CCOCC2)c1", "pEC50": "≤ 4.00"}
{"data": "Sample 4", "target": "Calcium/calmodulin-dependent protein kinase type II subunit alpha (CAMK2A, Homo sapiens, UniProt Q9UQM7)", "effect on": "enzyme activity", "action": "inhibitor", "concentration": "10 µM", "sequence of UniProt Q9UQM7 (whole entry, looked up)": "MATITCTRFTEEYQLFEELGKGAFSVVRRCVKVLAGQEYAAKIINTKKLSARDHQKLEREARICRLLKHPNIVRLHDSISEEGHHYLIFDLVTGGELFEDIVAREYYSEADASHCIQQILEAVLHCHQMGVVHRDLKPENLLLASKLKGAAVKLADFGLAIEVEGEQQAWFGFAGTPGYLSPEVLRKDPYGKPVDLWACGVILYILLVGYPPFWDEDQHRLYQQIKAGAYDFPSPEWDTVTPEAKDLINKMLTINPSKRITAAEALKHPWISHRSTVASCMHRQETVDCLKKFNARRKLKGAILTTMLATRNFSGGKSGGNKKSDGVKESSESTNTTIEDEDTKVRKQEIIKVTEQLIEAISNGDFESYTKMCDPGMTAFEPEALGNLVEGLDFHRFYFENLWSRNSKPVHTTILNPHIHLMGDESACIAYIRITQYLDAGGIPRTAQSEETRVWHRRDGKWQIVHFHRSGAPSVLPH"}
{"Structure (SMILES)": "CC1CCCCC1=O (stereo not drawn)", "inhibition": "56%"}
{"Structure (SMILES)": "Cc1cc(C(=O)O)ccc1O", "inhibition": "-58%"}
{"Structure (SMILES)": "N=C(N)NS(=O)(=O)c1ccc(N)cc1", "inhibition": "-10%"}
{"Structure (SMILES)": "Nc1nc(Cl)nc2c1ncn2[C@H]1C[C@H](O)[C@@H](CO)O1", "inhibition": "1%"}
{"Structure (SMILES)": "C/C=C(/C)C(=O)O", "inhibition": "-38%"}
{"Structure (SMILES)": "CC(=O)OCCC(C)CCC=C(C)C (stereo not drawn)", "inhibition": "-8%"}
{"Structure (SMILES)": "CC(C)=CCC12Oc3cc(O)ccc3C1(O)Oc1cc(O)c([C@H]3C=C(C)C[C@@H](c4ccc(O)cc4O)[C@@H]3C(=O)c3ccc(O)cc3O)c(O)c1C2=O (stereo partly drawn)", "inhibition": "-46%"}
{"Structure (SMILES)": "C[C@@H]1CC[C@@]2(OC1)O[C@H]1C[C@H]3[C@@H]4CC=C5C[C@@H](O[C@@H]6O[C@H](CO)[C@@H](O[C@@H]7O[C@@H](CO)[C@H](O)[C@H]7O)[C@H](O)[C@H]6O[C@@H]6O[C@@H](C)[C@H](O)[C@@H](O)[C@H]6O)CC[C@]5(C)[C@H]4CC[C@]3(C)[C@H]1[C@@H]2C", "inhibition": "-8%"}
{"Structure (SMILES)": "O[C@@H]1CCCC[C@H]1O (relative stereo)", "inhibition": "-12%"}
{"Structure (SMILES)": "CN(C)CCN(Cc1ccc(Cl)cc1)c1ccccn1", "inhibition": "-7%"}
{"Structure (SMILES)": "CCOc1ccc(/C=C2\\NCCc3cc(OCC)c(OCC)cc32)cc1OCC", "inhibition": "-10%"}
{"Structure (SMILES)": "O=C(O)c1ccccn1", "inhibition": "18%"}
{"Structure (SMILES)": "CC(=O)O[C@H]1CC[C@]2(C)[C@H]3CC=C4[C@@H]5CC(C)(C)CC[C@]5(C(=O)O)CC[C@@]4(C)[C@]3(C)CC[C@H]2C1(C)C", "inhibition": "-23%"}
{"Structure (SMILES)": "CC[C@H]1OC(=O)[C@H](C)[C@@H](O[C@H]2C[C@@](C)(OC)[C@@H](O)[C@H](C)O2)[C@H](C)[C@@H](O[C@@H]2O[C@H](C)C[C@H](N(C)C)[C@H]2O)[C@](C)(O)C[C@@H](C)C(=O)[C@H](C)[C@@H](O)[C@]1(C)O", "inhibition": "12%"}
{"Structure (SMILES)": "O=C(O)c1cc(=O)c2ccccc2[nH]1", "inhibition": "38%"}
{"Structure (SMILES)": "COc1ccc(C(=O)c2ccccc2)c(O)c1", "inhibition": "4%"}
{"note": "A few entries again (sample 2):"}
{"target": "CDC42BPG (Homo sapiens, UniProt Q6DT37)", "method": "competitive binding panel", "item": "DMPK2", "reference": "vehicle", "remaining binding": "81%"}
{"target": "NTRK1 (Homo sapiens, UniProt P04629)", "method": "competitive binding", "setting": "TRKA", "remaining binding": "94%"}
{"target": "TESK1 (Homo sapiens, UniProt Q15569)", "method": "competitive binding panel", "reference": "vehicle", "remaining binding": "100%"}
{"target": "JAK1 (Homo sapiens, UniProt P23458)", "method": "competitive binding panel", "reference": "vehicle", "remaining binding": "82%"}
{"target": "STK10 (Homo sapiens, UniProt O94804)", "method": "competitive binding", "setting": "LOK", "remaining binding": "21%"}
{"target": "HIPK3 (Homo sapiens, UniProt Q9H422)", "method": "competitive binding panel", "reference": "vehicle", "remaining binding": "98%"}
{"target": "LRRK2 (Homo sapiens, UniProt Q5S007)", "method": "competitive binding panel", "reference": "vehicle", "remaining binding": "100%"}
